# Results of several laboratories.
# Each line is one published result; not all experiments were run side by side. ± marks the error that the study gave.
SMILES,species,medium,route,dose,time,setting,AUC(0-inf) [ng·h/mL]
CO[C@H]1C[C@@H]2CC[C@@H](C)[C@@](O)(O2)C(=O)C(=O)N2CCCC[C@H]2C(=O)O[C@H]([C@H](C)C[C@@H]2CC[C@@H](O)[C@H](OC)C2)CC(=O)[C@H](C)/C=C(\C)[C@@H](O)[C@@H](OC)C(=O)[C@H](C)C[C@H](C)/C=C/C=C/C=C/1C,human,whole blood,oral,25 mg,,without grapefruit juice,1450
C=C(C)[C@@H]1CC[C@]2(NCCN3CCS(=O)(=O)CC3)CC[C@]3(C)[C@H](CC[C@@H]4[C@@]5(C)CC=C(C6=CC[C@@](CF)(C(=O)O)CC6)C(C)(C)[C@@H]5CC[C@]43C)[C@@H]12,healthy human volunteers,plasma,oral,200 mg,,"tablet, moderate-fat state, mean",44100
Cc1ccc(NC(=O)c2ccc(CN3CCN(C)CC3)cc2)cc1Nc1nccc(-c2cncc(-c3oncc3C)c2)n1,older healthy human adults,plasma,oral,125 mg single dose,,"fed, mean",110000
C=CC(=O)Nc1cc(Nc2ncc(C(=O)OC(C)C)c(-c3cn(C)c4ccccc34)n2)c(OC)cc1N(C)CCN(C)C,"human, fasted",,oral,20 mg single dose,,geometric mean,64
CCCC[C@H](NC(C)=O)C(=O)N[C@H]1CCC(=O)NC[C@@H](C(=O)N[C@@H](Cc2c[nH]c3ccccc23)C(N)=O)NC(=O)[C@H](CCCNC(=N)N)NC(=O)[C@@H](Cc2ccccc2)NC(=O)[C@H](Cc2c[nH]cn2)NC1=O,"healthy human, both sexes",plasma,subcutaneous,3.0 mg once daily,day 7,geometric mean,199
CC(C)NC[C@@H](C(=O)N1CCN(c2ncnc3c2[C@H](C)C[C@H]3O)CC1)c1ccc(Cl)cc1,"human, matched normal hepatic function (Child-Pugh)",plasma,oral,100 mg single,,"reference geometric mean, vs Moderate",309
CC(C)(C)OC[C@@H]1C(=O)NCCN1C(=O)C[C@H](N)Cc1cc(F)c(F)cc1F,human,,,10 mg once daily,,"steady state, day 10",354 ± 55
C=CC(=O)Nc1cc(Nc2ncc(C(=O)OC(C)C)c(-c3cn(C)c4ccccc34)n2)c(OC)cc1N(C)CCN(C)C,human,plasma,oral,160 mg,,"geometric mean, alone",1510
CN[C@H]1CN(c2ccc3c(=O)c(C(=O)O)cn(-c4nccs4)c3n2)C[C@@H]1OC,human patients,plasma,intravenous,18 to 90 mg/m^2 weekly,"day 1, cycle 1","mean, noncompartmental",31200
